Assay results pooled from the literature.
Values joined by “and” are separate records of one study, mostly repeats; a detail may differ. ± marks the error that the study gave.
CASP9: Caspase-9 (CASP9, Homo sapiens, UniProt P55211)
Sequence of UniProt P55211 (whole entry, looked up): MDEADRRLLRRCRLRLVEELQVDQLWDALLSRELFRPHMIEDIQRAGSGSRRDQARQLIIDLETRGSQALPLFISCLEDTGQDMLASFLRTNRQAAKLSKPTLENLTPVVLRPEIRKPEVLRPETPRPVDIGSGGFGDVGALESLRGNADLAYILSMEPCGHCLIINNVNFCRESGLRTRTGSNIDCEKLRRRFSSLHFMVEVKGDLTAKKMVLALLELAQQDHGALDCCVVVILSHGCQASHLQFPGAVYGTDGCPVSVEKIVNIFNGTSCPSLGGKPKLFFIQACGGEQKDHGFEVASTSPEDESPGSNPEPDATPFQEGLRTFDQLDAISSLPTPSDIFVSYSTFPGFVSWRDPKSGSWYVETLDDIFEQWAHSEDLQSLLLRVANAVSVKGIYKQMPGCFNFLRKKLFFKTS
HTR6: 5-hydroxytryptamine receptor 6 (HTR6, Homo sapiens, UniProt P50406)
Sequence of UniProt P50406 (whole entry, looked up): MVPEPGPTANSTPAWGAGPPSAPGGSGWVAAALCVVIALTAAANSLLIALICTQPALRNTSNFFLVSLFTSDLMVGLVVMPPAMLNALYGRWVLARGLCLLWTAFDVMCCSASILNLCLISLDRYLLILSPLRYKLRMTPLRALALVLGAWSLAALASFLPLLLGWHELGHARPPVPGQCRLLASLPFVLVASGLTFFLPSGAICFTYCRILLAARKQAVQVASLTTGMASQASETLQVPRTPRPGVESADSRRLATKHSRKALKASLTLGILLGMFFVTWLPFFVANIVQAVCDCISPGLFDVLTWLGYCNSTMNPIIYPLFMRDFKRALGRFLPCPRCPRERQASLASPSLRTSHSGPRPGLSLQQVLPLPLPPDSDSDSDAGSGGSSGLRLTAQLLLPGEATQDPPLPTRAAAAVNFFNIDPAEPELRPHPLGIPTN
KDM1A: Lysine-specific histone demethylase 1A (KDM1A, Homo sapiens, UniProt O60341)
CHRM2: Muscarinic acetylcholine receptor M2 (CHRM2, Homo sapiens, UniProt P08172)
Sequence of UniProt P08172 (whole entry, looked up): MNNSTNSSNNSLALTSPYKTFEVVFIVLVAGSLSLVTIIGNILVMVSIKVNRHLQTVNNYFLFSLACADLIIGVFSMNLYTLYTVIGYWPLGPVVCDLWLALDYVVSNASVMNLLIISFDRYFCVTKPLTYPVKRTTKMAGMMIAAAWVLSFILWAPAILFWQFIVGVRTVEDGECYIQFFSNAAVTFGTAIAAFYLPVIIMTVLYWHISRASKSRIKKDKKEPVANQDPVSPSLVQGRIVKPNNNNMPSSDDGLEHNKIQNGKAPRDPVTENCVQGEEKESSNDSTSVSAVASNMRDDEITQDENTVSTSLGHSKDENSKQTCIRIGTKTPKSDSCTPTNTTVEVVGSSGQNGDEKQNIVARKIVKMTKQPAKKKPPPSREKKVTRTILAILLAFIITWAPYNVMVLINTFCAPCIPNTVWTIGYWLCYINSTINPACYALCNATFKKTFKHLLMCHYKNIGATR
Uncharacterized protein: Uncharacterized protein (Trypanosoma cruzi, UniProt Q4DRC3)
cathepsin L: cathepsin L (Capra hircus, UniProt A0A452FFI6)
Sequence of UniProt P45983 (whole entry, looked up): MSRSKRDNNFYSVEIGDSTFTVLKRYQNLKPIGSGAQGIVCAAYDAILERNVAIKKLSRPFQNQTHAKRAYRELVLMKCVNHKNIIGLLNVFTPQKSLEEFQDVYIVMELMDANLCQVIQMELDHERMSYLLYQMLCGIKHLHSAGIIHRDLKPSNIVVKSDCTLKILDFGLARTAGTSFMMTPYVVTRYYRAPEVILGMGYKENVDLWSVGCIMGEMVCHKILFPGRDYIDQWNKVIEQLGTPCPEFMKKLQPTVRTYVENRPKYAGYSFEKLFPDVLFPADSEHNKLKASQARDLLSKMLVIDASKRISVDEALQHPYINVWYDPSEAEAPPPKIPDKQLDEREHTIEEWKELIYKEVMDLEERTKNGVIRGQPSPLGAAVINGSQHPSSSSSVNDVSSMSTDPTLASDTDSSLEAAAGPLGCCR
Sequence of UniProt Q16572 (whole entry, looked up): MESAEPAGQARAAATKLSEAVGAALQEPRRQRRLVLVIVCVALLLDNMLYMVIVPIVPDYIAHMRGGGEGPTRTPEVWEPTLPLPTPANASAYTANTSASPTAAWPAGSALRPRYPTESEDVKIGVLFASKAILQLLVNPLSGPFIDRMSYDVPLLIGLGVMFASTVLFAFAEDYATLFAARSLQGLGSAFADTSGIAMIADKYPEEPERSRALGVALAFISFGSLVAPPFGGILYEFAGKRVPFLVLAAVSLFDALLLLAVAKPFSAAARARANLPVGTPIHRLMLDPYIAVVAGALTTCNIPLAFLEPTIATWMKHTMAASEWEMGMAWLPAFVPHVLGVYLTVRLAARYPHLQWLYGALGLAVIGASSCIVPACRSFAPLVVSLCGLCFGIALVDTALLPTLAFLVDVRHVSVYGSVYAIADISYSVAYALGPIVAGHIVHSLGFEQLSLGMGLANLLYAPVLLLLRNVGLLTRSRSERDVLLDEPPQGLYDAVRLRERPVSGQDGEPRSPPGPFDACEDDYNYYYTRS
Sequence of UniProt O00519 (whole entry, looked up): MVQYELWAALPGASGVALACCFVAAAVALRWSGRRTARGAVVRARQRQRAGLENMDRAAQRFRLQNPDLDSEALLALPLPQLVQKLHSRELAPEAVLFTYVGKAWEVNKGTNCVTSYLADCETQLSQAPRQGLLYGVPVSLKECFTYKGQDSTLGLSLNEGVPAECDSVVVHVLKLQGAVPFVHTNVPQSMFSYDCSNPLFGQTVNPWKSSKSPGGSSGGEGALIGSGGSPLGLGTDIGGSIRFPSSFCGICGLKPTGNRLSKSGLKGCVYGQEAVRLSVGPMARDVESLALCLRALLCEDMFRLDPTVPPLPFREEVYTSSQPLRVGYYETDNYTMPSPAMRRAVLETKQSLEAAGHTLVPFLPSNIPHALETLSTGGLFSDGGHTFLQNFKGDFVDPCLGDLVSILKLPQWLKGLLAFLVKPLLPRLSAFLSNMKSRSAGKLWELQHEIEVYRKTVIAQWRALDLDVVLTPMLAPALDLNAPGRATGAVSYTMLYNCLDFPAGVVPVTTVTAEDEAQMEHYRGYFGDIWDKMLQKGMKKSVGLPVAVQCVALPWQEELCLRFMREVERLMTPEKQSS
Sequence of UniProt P34913 (whole entry, looked up): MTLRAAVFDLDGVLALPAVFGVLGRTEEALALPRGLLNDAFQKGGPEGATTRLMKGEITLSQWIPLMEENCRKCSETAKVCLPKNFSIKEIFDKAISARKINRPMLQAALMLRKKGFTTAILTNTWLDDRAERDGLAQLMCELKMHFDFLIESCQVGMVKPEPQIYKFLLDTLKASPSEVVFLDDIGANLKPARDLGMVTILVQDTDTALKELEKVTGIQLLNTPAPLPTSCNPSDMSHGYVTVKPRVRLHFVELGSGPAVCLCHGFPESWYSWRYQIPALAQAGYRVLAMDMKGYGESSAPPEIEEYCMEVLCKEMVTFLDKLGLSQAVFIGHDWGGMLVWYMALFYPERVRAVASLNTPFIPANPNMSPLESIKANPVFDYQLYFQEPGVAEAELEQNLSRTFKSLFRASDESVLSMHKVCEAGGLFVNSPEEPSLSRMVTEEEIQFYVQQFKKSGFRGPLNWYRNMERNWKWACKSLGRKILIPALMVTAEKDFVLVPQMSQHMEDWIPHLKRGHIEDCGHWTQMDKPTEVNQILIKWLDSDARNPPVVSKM
Sequence of UniProt P26769 (whole entry, looked up): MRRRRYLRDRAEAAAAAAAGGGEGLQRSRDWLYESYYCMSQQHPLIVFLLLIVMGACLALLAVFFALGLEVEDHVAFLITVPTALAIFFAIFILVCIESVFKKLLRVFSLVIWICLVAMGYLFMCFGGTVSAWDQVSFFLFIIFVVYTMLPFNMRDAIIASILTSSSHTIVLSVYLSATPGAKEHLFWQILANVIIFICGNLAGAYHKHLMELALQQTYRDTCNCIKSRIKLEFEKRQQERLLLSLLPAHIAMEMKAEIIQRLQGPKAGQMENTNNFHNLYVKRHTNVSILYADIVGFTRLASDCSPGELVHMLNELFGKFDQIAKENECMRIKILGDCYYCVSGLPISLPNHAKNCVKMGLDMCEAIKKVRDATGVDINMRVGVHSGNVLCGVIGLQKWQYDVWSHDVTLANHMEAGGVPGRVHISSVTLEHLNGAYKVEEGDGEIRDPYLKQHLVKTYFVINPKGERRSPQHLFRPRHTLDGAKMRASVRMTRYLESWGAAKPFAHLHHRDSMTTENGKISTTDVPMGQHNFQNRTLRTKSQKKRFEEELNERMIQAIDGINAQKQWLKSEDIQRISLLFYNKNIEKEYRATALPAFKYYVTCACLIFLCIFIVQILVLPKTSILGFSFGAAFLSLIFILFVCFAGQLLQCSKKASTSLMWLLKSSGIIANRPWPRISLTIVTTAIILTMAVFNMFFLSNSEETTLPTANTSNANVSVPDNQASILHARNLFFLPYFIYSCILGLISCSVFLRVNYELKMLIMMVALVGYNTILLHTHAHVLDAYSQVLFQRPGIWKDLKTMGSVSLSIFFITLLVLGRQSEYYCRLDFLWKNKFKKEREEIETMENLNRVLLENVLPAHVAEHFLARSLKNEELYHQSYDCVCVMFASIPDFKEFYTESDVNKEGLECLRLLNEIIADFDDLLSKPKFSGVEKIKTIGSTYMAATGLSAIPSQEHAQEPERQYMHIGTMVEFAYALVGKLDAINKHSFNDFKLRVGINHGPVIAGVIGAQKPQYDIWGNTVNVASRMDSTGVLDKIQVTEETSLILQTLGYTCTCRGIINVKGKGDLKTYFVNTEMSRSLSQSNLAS
Sequence of UniProt P62942 (whole entry, looked up): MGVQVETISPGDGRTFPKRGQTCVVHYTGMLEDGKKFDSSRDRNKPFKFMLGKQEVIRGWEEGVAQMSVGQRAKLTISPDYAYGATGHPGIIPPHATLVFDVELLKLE
Sequence of UniProt P60560 (whole entry, looked up): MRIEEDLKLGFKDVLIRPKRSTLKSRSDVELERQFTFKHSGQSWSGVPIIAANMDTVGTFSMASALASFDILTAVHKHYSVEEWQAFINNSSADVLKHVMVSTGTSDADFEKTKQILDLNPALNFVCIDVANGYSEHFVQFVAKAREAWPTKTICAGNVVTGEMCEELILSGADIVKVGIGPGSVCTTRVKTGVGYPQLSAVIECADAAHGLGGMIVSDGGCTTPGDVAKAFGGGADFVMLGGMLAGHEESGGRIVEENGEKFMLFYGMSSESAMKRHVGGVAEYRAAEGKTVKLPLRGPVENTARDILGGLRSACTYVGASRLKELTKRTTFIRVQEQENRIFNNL

SMILES | target | assay | test system | conditions | Ki
CC[C@H](C)[C@H](NC(C)=O)C(=O)N[C@H](C(=O)N[C@H](C(=O)N[C@@H](CN)C(=O)N[C@H](C=O)CC(=O)O)C(C)C)[C@@H](C)O | CASP9 | enzyme activity, inhibitor, fluorescence | – | pH 7 | 20.9 µM
C[C@@H]1NC(=O)[C@H](C)NC(=O)[C@H](CCC(N)=O)NC(=O)C[C@@H](CCc2ccccc2)NC(=O)[C@@H]2CCCCN2C(=O)C(=O)C(C)(C)COC(=O)[C@@H](C)NC(=O)[C@H](CC(=O)O)NC1=O | Peptidyl-prolyl cis-trans isomerase FKBP1A (FKBP1A, Homo sapiens, UniProt P62942) | ligand displacement, FP | – | – | 0.22 µM
CNC(=O)[C@@]12C[C@@H]1[C@@H](n1cnc3c(NCc4cccc(Cl)c4)nc(C#Cc4cccc(Cl)c4)nc31)[C@H](O)[C@@H]2O | Delta-type opioid receptor (OPRD1, Homo sapiens, UniProt P41143) | ligand displacement, radioligand | – | – | 5.87 µM
CCCCCCCCNC(=S)N1[C@H](CCC)[C@H](O)[C@@H](O)[C@H](O)[C@H]1CO | beta-glucosidase (almond) | competitive inhibitor | – | together with: p-nitrophenyl glucopyranoside | > 2000 µM
Clc1cc(CN2CCCC2)ccc1OCCCN1CCN(c2cccc3sccc23)CC1 | HTR6 | ligand displacement, radioligand | – | – | 0.418 µM
CCC[C@@H]1[C@H](O)[C@@H](O)[C@H](O)[C@@H](CO)N1C(=S)NCCc1ccccc1 | beta-glucosidase (almond) | competitive inhibitor | – | together with: p-nitrophenyl glucopyranoside | > 2000 µM
Nc1ncnc2c(CN3C[C@H](CSc4cnccn4)[C@@H](O)C3)c[nH]c12 | MTA/SAH nucleosidase (Campylobacter jejuni subsp. jejuni, UniProt Z9IB28FKP7) | enzyme activity, inhibitor | – | slow-onset tight binding | 0.0014 µM
O=C(COc1cccc2ccccc12)NCc1ccc(OP(=O)(O)O)c(OP(=O)(O)O)c1 | Signal transducer and activator of transcription 5B, SH2 (STAT5B, Homo sapiens, UniProt P51692) | ligand displacement, FP | – | – | 0.24 µM
COc1ccc(CCCN[C@H]2CCC[C@@H]2CN[C@@H]2CCC[C@H]2CNCCCCN[C@H]2CCC[C@@H]2CN)cc1 | KDM1A | enzyme activity, inhibitor | – | – | 3.3 µM
CN1CCC=C(c2nsnc2OCCCCCNC(=O)CCCCCCC(=O)NCCCCCOc2nsnc2C2=CCCN(C)C2)C1 | CHRM2 | ligand displacement, radioligand | – | – | 0.00347 µM
C#CCOC(=O)[C@@]1(C)C=C(C(=O)OC(C)(C)C)C(=O)CC1 | Mitogen-activated protein kinase 8 (MAPK8, Homo sapiens, UniProt P45983) | ligand displacement, FP | – | – | 17 µM
CCCN(CCC)CC1CCCCN1CCNC(=O)N1c2ccccc2NC(=O)c2cccnc21 (centres unmarked) | CHRM2 | ligand displacement, radioligand | – | cell membranes | 0.0195 µM
Cc1nc(N=Nc2ccc(S(=O)(=O)O)cc2S(=O)(=O)O)c(COP(=O)(O)O)c(C=O)c1O | Ectonucleoside triphosphate diphosphohydrolase 2 (Rattus norvegicus, UniProt O35795) | enzyme activity, inhibitor | – | cell membranes | 44.2 µM
CN1CCC=C(c2nsnc2OCCCN2CCN(CCCCC3CCN(CC(=O)N4c5ccccc5NC(=O)c5ccccc54)CC3)CC(N)C2)C1 (centres unmarked) | CHRM2 | ligand displacement, radioligand | – | – | 0.000501 µM
CN(Cc1c[nH]c2c(=O)[nH]cnc12)[C@H](CO)CCP(=O)(O)O | Uncharacterized protein | IMP formation, uncompetitive inhibitor | – | pH 8.3, 37 °C, together with: hypoxanthine 120 µM, PRPP 1 mM | 0.7 ± 0.1 µM
CNc1ccccc1C(=O)O[C@H]1[C@@H](O)[C@H](n2ccc(N)nc2=O)O[C@@H]1COP(=O)(O)OP(=O)(O)O | Adenylate cyclase type 2 (Adcy2, Rattus norvegicus, UniProt P26769) | adenylyl cyclase activity, inhibitor | Sf9 membranes | together with: 5 mM MnCl2, 100 µM forskolin | 3.7 ± 0.42 µM
CN1CCC=C(c2nsnc2OCCCN2CCN(CCCCC3CCN(CC(=O)N4c5ccccc5NC(=O)c5ccccc54)CC3)CC2)C1 | CHRM2 | ligand displacement, radioligand | – | – | 7.24e-05 µM
CNC(=O)C1CCN(c2cc(C)c(F)cc2NC(=O)c2ccc(-c3cc(O)ccc3C)c(C)c2)CC1 | Tyrosine-protein kinase Lck (LCK, Homo sapiens, UniProt P06239) | cell-free assay, TR-FRET | – | – | 0.0106 µM
O=c1[nH]c(=O)c2ncn([C@@H]3O[C@H](COP(=O)(O)O)[C@@H](O)[C@H]3O)c2[nH]1 | guaC (Escherichia coli, UniProt P60560) | inhibitor | – | – | 28 ± 5 µM
C=C(C)[C@@H]1CC=C(C)CC1 | chemosensory protein 5 (Mythimna separata, UniProt A0A5H2NAD7) | binding, 1-NPN displacement | – | pH 7.4 | 7.11 µM
NC(=O)N/N=C(\C=C\c1cccc([N+](=O)[O-])c1)c1ccccc1 | cathepsin L | enzyme activity, competitive inhibitor | goat liver enzyme | pH 6.0, together with: Z-Phe-Arg-4-methoxy-β-naphthylamide | 0.0149 ± 0.0002 µM
O=c1[nH]cnc2c(CNCC(O)CP(=O)(O)O)c[nH]c12 (racemic) | Uncharacterized protein | IMP formation, uncompetitive inhibitor | – | pH 8.3, 37 °C, together with: hypoxanthine 120 µM, PRPP 1 mM | 11 ± 1 µM

SMILES | target | assay | test system | conditions | Ki
C[C@H]1CN(C2CC2)C[C@H]1NC(=O)c1cnc2c(F)ccc(F)c2c1 | D(3) dopamine receptor (DRD3, Homo sapiens, UniProt P35462) | ligand displacement, radioligand | – | cell membranes | > 10 µM
CCCCc1nc2c([nH]1)[C@H](O)[C@@H](O)[C@H](O)[C@H]2O | sweet almond β-glucosidase | inhibitor | – | pH 5.2, together with: 2,4-dinitrophenyl β-D-glucopyranoside | 0.221 ± 0.004 µM
O=[N+]([O-])c1ccccc1CO[C@@H](CO)[C@H](O)C[S@@+]1C[C@@H](O)[C@H](O)[C@H]1CO | Lysosomal alpha-glucosidase (GAA, Homo sapiens, UniProt P10253) | enzyme activity, inhibitor, absorbance | – | pH 5.2 | 0.17 µM
COc1cccc(/C=C/C(=N\NC(N)=O)c2ccccc2)c1 | cathepsin L | enzyme activity, competitive inhibitor | goat liver enzyme | pH 6.0, together with: Z-Phe-Arg-4-methoxy-β-naphthylamide | 0.0011 ± 1.3e-05 µM
COc1ccc(C2(O)CCN(CCCCCC3=C4C(C)=CC(C)=[N+]4[B-](F)(F)n4c(C)cc(C)c43)CC2)cc1 | Sodium- and chloride-dependent glycine transporter 2 (Homo sapiens, UniProt Q9Y345) | cell-free assay, mass spectrometry | – | – | 0.398 µM
CC(=O)N[C@@H](CC(=O)O)C(=O)N[C@H](C(=O)N1CCC[C@H]1C(=O)N[C@H](C=O)CC(=O)O)C(C)C | CASP9 | enzyme activity, inhibitor, fluorescence | – | pH 7 | 0.479 µM
O=C1N(CN2CCN(c3ccccc3)CC2)c2ccccc2C12OCCCO2 | 5-hydroxytryptamine receptor 1A (HTR1A, Homo sapiens, UniProt P08908) | ligand displacement, radioligand | – | – | 0.244 µM
COc1ccc(/C=C/C(=O)c2ccccc2)cc1 | cathepsin L | enzyme activity, competitive inhibitor | goat liver enzyme | pH 6.0, together with: Z-Phe-Arg-4-methoxy-β-naphthylamide | 0.0263 ± 7e-05 µM
CCc1noc(-c2ccc(-n3cnc(C(=O)NCc4cccs4)c3)nc2)n1 | Alpha-synuclein, fibril (SNCA, Homo sapiens, UniProt P37840) | ligand displacement, radioligand | – | – | > 1 µM
CCC(=O)NCc1cc(C(=O)NCCN2CCC(N3CCC(n4c(=O)[nH]c5ccccc54)CC3)CC2)cc(C(=O)NCCN2CCN(CCCCC3CCN(CC(=O)N4c5ccccc5NC(=O)c5ccccc54)CC3)CC2)c1 | CHRM2 | ligand displacement, radioligand | – | cell membranes | 0.000363 µM
NCCCCNCCCNCCCNCCCN | KDM1A | enzyme activity, inhibitor, absorbance | – | – | 13 µM
O=C(Nc1ccc(C(F)(F)F)nc1)N1CCC(Cc2cccc(Oc3ccc(C(F)(F)F)cn3)c2)CC1 | Fatty-acid amide hydrolase 1 (FAAH, Homo sapiens, UniProt O00519) | enzyme activity, inhibitor | – | – | 0.014 µM
CC(C)C[C@@H]1NC(=O)[C@H](C)NC(=O)[C@H](CC2CCN(C(=N)N)CC2)NC(=O)[C@H](CO)NC(=O)[C@H](CCCNC(=N)N)NC(=O)[C@H](CCCCN)NC(=O)[C@@H]2CCCN2C(=O)[C@@H](N)CSSC[C@@H](C(=O)O)NC(=O)[C@H](Cc2ccccc2)NC1=O | Coagulation factor XI (F11, Homo sapiens, UniProt P03951) | enzyme activity, inhibitor, absorbance | – | pH 7.4 | 12.1 µM
CC(C)(F)CC(NC(c1ccc(-c2ccc(S(C)(=O)=O)cc2)cc1)C(F)(F)F)C(=O)NCC#CBr (centres unmarked) | Cathepsin K (CTSK, Homo sapiens, UniProt P43235) | enzyme activity, inhibitor, fluorescence | – | – | 0.19 µM
CCC[C@@H]1[C@H](O)[C@@H](O)[C@H](O)[C@@H](CO)N1C(=S)NCc1ccccc1 | beta-glucosidase (almond) | competitive inhibitor | – | together with: p-nitrophenyl glucopyranoside | > 2000 µM
O=C(NCCc1ccc(O)cc1)C1=Cc2cc(O)c(O)cc2[C@H](c2ccc(O)c(O)c2)[C@H]1C(=O)NCCc1ccc(O)cc1 | Bifunctional epoxide hydrolase 2 (EPHX2, Homo sapiens, UniProt P34913) | enzyme activity, inhibitor | – | – | 9.9 µM
Clc1cc(OCCCN2CCN(c3cccc4sccc34)CC2)ccc1CN1CCOCC1 | HTR6 | ligand displacement, radioligand | – | – | 0.356 µM
NCc1cc(C(=O)NCCN2CCN(CCCCC3CCN(CCCN4C(=O)CCc5ccccc54)CC3)CC2)cc(C(=O)NCCN2CCN(CCCCC3CCN(CC(=O)N4c5ccccc5NC(=O)c5ccccc54)CC3)CC2)c1 | CHRM2 | ligand displacement, radioligand | – | – | 0.000234 µM
O=C(c1ccc(NCCF)cc1)C1CCN(C2Cc3ccccc3CC2O)CC1 (single isomer, unassigned; (+)) | Vesicular acetylcholine transporter (SLC18A3, Homo sapiens, UniProt Q16572) | ligand displacement, radioligand | – | – | 0.00231 µM
NC(=O)N/N=C(\C=C\c1cccc(Cl)c1)c1ccccc1 | cathepsin L | enzyme activity, competitive inhibitor | goat liver enzyme | pH 6.0, together with: Z-Phe-Arg-4-methoxy-β-naphthylamide | 5e-05 ± 5e-07 µM
O=c1[nH]cnc2c(CN[C@H](CO)CCP(=O)(O)O)c[nH]c12 | Uncharacterized protein | IMP formation, uncompetitive inhibitor | – | pH 8.3, 37 °C, together with: hypoxanthine 120 µM, PRPP 1 mM | 1.6 µM and 0.6 to 1.6 µM
Cc1cc(CN2CCCC2)ccc1OCCCN1CCN(c2cccc3sccc23)CC1 | HTR6 | ligand displacement, radioligand | – | – | 0.464 µM

For quick reference, copied from above:
SMILES | target | assay | test system | conditions | Ki
COc1ccc(/C=C/C(=O)c2ccccc2)cc1 | cathepsin L | enzyme activity, competitive inhibitor | goat liver enzyme | pH 6.0, together with: Z-Phe-Arg-4-methoxy-β-naphthylamide | 0.0263 ± 7e-05 µM
CCc1noc(-c2ccc(-n3cnc(C(=O)NCc4cccs4)c3)nc2)n1 | Alpha-synuclein, fibril (SNCA, Homo sapiens, UniProt P37840) | ligand displacement, radioligand | – | – | > 1 µM
CCC(=O)NCc1cc(C(=O)NCCN2CCC(N3CCC(n4c(=O)[nH]c5ccccc54)CC3)CC2)cc(C(=O)NCCN2CCN(CCCCC3CCN(CC(=O)N4c5ccccc5NC(=O)c5ccccc54)CC3)CC2)c1 | CHRM2 | ligand displacement, radioligand | – | cell membranes | 0.000363 µM
NCCCCNCCCNCCCNCCCN | KDM1A | enzyme activity, inhibitor, absorbance | – | – | 13 µM
O=C(Nc1ccc(C(F)(F)F)nc1)N1CCC(Cc2cccc(Oc3ccc(C(F)(F)F)cn3)c2)CC1 | Fatty-acid amide hydrolase 1 (FAAH, Homo sapiens, UniProt O00519) | enzyme activity, inhibitor | – | – | 0.014 µM
CC(C)C[C@@H]1NC(=O)[C@H](C)NC(=O)[C@H](CC2CCN(C(=N)N)CC2)NC(=O)[C@H](CO)NC(=O)[C@H](CCCNC(=N)N)NC(=O)[C@H](CCCCN)NC(=O)[C@@H]2CCCN2C(=O)[C@@H](N)CSSC[C@@H](C(=O)O)NC(=O)[C@H](Cc2ccccc2)NC1=O | Coagulation factor XI (F11, Homo sapiens, UniProt P03951) | enzyme activity, inhibitor, absorbance | – | pH 7.4 | 12.1 µM
